# Experimental data collected from several papers.
# Protein sequences, listed by entry. Tags and fused reporters are not part of them. Residues count along the entry.
# UniProt P05067, whole entry, looked up: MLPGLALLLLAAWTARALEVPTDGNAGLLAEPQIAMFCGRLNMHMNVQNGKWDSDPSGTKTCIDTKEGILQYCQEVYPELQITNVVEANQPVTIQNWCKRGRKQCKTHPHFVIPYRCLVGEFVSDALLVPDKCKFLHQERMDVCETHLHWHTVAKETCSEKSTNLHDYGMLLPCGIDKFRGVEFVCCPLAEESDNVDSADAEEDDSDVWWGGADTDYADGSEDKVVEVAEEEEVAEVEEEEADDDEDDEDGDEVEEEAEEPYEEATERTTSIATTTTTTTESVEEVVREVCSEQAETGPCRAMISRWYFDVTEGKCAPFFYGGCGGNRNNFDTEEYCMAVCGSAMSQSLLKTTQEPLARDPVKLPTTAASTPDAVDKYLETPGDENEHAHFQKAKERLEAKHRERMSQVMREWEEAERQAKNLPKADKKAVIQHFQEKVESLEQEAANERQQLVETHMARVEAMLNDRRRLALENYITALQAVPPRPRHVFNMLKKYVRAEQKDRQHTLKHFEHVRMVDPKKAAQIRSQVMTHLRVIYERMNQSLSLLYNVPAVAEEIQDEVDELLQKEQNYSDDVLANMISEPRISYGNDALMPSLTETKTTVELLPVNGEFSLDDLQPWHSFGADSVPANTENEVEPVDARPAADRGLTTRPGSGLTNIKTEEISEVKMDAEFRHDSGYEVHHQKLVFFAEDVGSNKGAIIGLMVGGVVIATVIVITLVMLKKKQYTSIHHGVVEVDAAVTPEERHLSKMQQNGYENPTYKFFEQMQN
# UniProt P23975, whole entry: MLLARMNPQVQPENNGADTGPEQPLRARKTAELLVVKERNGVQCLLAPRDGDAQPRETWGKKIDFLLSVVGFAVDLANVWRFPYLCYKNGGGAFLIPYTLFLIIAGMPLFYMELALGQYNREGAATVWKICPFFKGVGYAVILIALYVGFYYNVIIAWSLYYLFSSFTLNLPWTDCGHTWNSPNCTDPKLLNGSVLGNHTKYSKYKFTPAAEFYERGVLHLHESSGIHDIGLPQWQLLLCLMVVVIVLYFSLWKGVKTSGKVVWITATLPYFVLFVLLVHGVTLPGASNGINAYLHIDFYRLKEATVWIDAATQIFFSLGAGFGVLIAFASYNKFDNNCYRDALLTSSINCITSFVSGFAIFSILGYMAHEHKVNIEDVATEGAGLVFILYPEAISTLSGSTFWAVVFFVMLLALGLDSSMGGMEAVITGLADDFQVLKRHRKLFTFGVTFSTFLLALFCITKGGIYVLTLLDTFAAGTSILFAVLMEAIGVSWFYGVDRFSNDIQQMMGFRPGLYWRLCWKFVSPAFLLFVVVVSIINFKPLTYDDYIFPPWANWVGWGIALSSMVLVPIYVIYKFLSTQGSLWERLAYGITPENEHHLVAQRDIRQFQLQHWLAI
# UniProt Q9R0C9, whole entry: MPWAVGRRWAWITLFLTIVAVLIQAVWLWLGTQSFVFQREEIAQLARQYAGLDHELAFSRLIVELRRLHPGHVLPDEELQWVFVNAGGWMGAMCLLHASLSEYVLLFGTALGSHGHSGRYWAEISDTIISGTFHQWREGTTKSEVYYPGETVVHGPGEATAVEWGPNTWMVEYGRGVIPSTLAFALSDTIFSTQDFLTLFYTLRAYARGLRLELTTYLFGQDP
# UniProt Q9HCG7, whole entry: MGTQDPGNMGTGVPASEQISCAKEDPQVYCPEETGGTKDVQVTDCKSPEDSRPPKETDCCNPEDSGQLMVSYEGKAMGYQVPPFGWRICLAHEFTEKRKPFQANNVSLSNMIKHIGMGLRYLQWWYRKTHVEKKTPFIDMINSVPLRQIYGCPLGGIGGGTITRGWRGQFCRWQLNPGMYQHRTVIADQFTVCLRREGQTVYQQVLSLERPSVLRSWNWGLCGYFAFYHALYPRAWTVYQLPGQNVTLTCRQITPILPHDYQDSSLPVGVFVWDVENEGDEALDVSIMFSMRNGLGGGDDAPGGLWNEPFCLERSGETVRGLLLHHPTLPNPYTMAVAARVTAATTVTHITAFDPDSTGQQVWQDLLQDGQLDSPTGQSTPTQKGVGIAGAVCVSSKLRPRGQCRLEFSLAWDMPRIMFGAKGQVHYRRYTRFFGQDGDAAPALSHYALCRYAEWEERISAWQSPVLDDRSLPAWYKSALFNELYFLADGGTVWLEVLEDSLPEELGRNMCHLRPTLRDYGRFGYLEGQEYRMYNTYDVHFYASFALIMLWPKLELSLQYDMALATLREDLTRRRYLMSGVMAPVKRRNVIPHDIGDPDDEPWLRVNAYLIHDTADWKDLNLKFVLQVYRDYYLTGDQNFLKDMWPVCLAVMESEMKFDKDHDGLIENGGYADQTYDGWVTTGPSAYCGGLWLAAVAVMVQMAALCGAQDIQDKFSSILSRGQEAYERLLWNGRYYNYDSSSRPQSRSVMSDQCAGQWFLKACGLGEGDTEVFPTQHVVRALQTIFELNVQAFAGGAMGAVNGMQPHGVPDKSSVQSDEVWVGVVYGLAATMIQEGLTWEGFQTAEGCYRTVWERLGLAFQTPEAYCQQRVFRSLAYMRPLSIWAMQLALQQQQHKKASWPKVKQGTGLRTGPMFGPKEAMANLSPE
# UniProt P54753, 34-998 limits assumed: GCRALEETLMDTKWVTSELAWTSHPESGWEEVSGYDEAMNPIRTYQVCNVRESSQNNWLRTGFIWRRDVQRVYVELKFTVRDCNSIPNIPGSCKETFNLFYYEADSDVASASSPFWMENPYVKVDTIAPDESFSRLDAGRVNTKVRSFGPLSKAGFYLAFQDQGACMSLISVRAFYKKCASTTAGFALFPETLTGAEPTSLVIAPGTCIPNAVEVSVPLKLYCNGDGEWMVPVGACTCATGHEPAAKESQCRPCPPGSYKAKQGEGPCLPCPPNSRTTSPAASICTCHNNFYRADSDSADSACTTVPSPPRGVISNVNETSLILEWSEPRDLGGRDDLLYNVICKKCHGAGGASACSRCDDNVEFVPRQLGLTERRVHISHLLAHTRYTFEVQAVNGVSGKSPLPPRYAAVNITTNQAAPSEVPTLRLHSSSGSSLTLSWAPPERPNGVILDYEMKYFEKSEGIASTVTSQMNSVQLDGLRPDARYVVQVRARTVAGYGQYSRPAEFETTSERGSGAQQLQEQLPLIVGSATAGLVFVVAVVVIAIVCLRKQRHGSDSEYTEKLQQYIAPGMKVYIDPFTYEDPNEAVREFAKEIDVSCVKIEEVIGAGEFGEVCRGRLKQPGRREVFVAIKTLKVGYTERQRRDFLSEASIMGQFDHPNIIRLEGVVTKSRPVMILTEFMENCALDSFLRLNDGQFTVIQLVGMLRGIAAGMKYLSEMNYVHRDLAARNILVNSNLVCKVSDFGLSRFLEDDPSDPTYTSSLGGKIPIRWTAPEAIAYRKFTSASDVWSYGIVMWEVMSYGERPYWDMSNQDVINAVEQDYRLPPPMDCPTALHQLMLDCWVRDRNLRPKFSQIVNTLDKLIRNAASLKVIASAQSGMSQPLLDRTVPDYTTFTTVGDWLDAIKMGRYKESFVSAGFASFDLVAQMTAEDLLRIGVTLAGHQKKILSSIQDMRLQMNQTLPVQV
# UniProt Q96PU5, 594-975 limits assumed: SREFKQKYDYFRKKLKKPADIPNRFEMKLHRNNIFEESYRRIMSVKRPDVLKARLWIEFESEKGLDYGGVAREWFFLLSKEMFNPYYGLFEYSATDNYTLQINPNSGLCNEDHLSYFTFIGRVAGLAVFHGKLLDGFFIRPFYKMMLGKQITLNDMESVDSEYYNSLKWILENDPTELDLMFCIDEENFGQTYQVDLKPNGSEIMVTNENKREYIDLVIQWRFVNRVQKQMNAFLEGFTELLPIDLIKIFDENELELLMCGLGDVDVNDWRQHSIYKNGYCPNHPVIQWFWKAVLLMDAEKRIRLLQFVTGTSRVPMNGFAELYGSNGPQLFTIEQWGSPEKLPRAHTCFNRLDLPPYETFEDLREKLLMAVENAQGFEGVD
# UniProt Q93009, 208-560 Q351S limits assumed: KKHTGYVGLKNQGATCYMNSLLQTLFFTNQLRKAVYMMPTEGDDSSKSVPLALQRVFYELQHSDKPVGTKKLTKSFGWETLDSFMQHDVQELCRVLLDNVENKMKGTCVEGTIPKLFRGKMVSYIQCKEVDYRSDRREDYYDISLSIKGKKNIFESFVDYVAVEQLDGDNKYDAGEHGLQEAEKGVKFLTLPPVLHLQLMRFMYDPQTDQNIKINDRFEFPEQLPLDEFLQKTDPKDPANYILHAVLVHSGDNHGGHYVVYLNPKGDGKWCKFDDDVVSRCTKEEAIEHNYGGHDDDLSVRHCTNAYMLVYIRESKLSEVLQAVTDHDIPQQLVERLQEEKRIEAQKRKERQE
# UniProt P50613, whole entry: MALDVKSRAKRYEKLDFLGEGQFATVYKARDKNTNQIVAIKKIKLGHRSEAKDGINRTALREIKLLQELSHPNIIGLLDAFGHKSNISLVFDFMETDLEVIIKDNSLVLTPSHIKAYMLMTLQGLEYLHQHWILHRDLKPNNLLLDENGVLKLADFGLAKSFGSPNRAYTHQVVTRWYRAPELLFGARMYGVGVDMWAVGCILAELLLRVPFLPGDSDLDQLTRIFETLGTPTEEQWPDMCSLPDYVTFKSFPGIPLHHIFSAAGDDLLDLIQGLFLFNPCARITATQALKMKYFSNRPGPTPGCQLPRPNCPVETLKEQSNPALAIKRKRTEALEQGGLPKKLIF
# UniProt P43235, 115-329 limits assumed: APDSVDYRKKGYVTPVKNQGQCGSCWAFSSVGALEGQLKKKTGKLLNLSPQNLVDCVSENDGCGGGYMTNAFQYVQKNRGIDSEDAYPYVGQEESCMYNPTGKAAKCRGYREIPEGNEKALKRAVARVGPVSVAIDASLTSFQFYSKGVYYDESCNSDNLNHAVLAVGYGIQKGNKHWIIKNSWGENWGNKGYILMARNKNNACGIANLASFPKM
# UniProt Q99685, whole entry: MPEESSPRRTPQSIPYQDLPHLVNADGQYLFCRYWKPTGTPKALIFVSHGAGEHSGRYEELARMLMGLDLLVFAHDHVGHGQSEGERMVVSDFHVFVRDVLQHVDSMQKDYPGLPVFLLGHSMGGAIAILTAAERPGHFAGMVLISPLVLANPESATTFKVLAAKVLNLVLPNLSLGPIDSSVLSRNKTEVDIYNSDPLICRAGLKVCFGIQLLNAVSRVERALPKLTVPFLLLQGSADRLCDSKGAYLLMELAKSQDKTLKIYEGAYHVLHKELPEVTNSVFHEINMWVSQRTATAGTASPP
# UniProt P23219, 24-599 limits assumed: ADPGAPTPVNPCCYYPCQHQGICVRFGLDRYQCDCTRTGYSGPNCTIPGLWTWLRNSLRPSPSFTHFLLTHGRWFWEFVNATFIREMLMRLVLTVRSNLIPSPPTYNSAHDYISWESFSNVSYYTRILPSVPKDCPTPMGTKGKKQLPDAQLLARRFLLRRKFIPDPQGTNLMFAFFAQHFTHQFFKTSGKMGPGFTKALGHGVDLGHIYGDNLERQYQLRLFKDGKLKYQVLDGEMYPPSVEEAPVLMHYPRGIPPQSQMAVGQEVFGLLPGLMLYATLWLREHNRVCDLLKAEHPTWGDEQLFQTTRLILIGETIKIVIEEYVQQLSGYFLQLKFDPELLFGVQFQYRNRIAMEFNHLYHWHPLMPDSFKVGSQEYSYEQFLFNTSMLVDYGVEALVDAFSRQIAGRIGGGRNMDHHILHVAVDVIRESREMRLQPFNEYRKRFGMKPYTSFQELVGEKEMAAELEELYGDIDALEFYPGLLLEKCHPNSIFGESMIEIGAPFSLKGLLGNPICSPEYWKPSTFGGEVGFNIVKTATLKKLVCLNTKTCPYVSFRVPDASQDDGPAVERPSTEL
# UniProt Q01959, whole entry: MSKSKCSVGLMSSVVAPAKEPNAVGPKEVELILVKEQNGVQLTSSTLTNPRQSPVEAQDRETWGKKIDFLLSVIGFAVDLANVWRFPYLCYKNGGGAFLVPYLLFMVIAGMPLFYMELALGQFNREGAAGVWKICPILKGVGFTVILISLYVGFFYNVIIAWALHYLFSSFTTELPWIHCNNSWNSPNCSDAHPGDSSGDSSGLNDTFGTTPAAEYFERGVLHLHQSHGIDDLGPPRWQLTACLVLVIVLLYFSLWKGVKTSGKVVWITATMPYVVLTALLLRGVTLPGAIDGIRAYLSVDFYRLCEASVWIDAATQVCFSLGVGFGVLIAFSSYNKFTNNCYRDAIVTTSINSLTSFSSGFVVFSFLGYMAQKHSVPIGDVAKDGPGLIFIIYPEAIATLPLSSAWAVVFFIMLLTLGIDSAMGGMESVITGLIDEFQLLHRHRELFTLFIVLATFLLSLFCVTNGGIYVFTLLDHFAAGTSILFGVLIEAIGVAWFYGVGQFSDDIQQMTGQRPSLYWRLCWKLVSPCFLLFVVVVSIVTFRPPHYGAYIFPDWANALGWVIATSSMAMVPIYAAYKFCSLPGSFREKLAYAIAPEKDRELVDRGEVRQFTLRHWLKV
# ± marks the error that the study gave.
# APP Aβ1-40: Amyloid-beta precursor protein, Aβ1-40 (APP, Homo sapiens, UniProt P05067)
# SLC6A2: Sodium-dependent noradrenaline transporter (SLC6A2, Homo sapiens, UniProt P23975)
# CTSB: Cathepsin B (CTSB, Homo sapiens, UniProt P07858)
# Sigmar1: Sigma non-opioid intracellular receptor 1 (Sigmar1, Rattus norvegicus, UniProt Q9R0C9)
SMILES,target or system,test,system,conditions,measurement,result
N#Cc1ccc2[nH]cc(/C=C/c3cccc(O)c3)c2c1,APP Aβ1-40,"Aβ40 aggregation, thioflavin T fluorescence",,25 µM,inhibition,24%
NC(=O)c1ccc(C(=O)NOCc2ccc(Sc3ccccc3F)c(C(F)(F)F)c2)cc1,"NAD-dependent protein deacylase sirtuin-6 (SIRT6, Homo sapiens, UniProt Q8N6T7)","deacetylase activity, fluorogenic",,"100 µM, together with: RHKK-ac-AMC",inhibition,100%
N#CC[C@@]12C[C@@H]1[C@@H](n1cnc3c(NCc4cccc(Cl)c4)nc(I)nc31)[C@H](O)[C@@H]2O,SLC6A2,"binding, radioligand binding",HEK293,"10 µM, negative means enhanced binding, together with: [3H]nisoxetine",inhibition,33 ± 7%
OCC1C(O)C(O)C(O)CN1CCCC(F)(F)COCc1ccc(-c2ccccc2)cc1 (centres unmarked),"Beta-glucosidase (GBA2, Homo sapiens, UniProt Q9HCG7)","inhibitor, FluoPol-ABPP competition",GBA2-overexpressing cell lysate,0.1 µM,inhibition,3.1%
O=C(CCl)Nc1ccc2c(Nc3ccccc3)ncnc2c1,"Ephrin type-B receptor 3 (EPHB3, Homo sapiens, UniProt P54753)","kinase activity, inhibitor, kinase panel",,300 nM,inhibition,inhibited
COc1ccc2[nH]cc(CCc3ccncc3)c2c1,APP Aβ1-40,"Aβ40 aggregation, thioflavin T fluorescence",,25 µM,inhibition,0%
CCOC(=O)/C=C/CNCCCCN1c2ccccc2CCc2ccc(Cl)cc21,"E3 ubiquitin-protein ligase NEDD4-like (NEDD4L, Homo sapiens, UniProt Q96PU5)","ubiquitination, Ub-TR-FRET",,"concentration not given, up to high concentrations",inhibition,no inhibition
COc1ccc2[nH]cc(/C=C/c3ccc(NC(C)=O)cc3)c2c1,APP Aβ1-40,"Aβ40 aggregation, thioflavin T fluorescence",,25 µM,inhibition,55%
O=C(CCc1ccccc1)N1CCC(O)(Cn2cnc3cc(Cl)ccc3c2=O)CC1,"Ubiquitin carboxyl-terminal hydrolase 7 (USP7, Homo sapiens, UniProt Q93009, Q351S)",enzyme activity,,"up to 100 µM, mutant catalytic domain, together with: Ub-AMC",inhibition,no inhibition
COc1cc([C@@H]2c3cc4c(cc3[C@@H](OC(C)C)[C@H]3COC(=O)[C@H]23)OCO4)cc(OC)c1OC,Leishmania infantum,iRFP fluorescence,"mouse splenocytes infected, amastigote, iRFP, ex vivo splenic explant",48 h,EC50,79.1 ± 5.3 µM
O=C(NCc1ccc(F)cc1)C(=O)[C@H](Cc1ccccc1)NC(=O)[C@H]1CCC(=O)N1Cc1ccc(F)cc1,CTSB,"enzyme activity, inhibitor",,1 µM,inhibition,14.2%
CNc1nc(C#Cc2ccc(Cl)s2)nc2c1ncn2[C@H]1[C@H](O)[C@H](O)[C@]2(C(=O)OC(C)C)C[C@H]12,SLC6A2,"binding, radioligand binding",HEK293,"10 µM, negative means enhanced binding, together with: [3H]nisoxetine",inhibition,37 ± 2%
CN(C)C(=O)Cn1cc(-c2ccc(-c3cncc4ccncc34)cc2)cn1,"Cyclin-dependent kinase 7 (CDK7, Homo sapiens, UniProt P50613)","enzyme activity, SelectScreen",,concentration not given,inhibition,no inhibition
CS(=O)(=O)Nc1cccc(/C=C/c2c[nH]c3ccc(C#N)cc23)c1,APP Aβ1-40,"Aβ40 aggregation, thioflavin T fluorescence",,25 µM,inhibition,0%
O=C(NC1CC1)C(=O)[C@H](Cc1ccccc1)NC(=O)[C@H]1CCC(=O)N1Cc1ccccc1,"Cathepsin K (CTSK, Homo sapiens, UniProt P43235)","enzyme activity, inhibitor",,1 µM,inhibition,4.1%
COc1cc([C@@H]2c3cc4c(cc3C=C(C=O)[C@H]2C(=O)OCCCn2cnc3c(Cl)ncnc32)OCO4)cc(OC)c1OC,Leishmania infantum,,"promastigote, iRFP",,EC50,> 100 µM
O=C(OC(C(F)(F)F)C(F)(F)F)N1Cc2cccc(Br)c2C1,"Monoglyceride lipase (MGLL, Homo sapiens, UniProt Q99685)","inhibitor, fluorescence",,"1 µM, together with: AHMMCE substrate",inhibition,inactive
CS(=O)(=O)Cc1onc(-c2cccc(Cl)c2)c1-c1ccnc(N[C@@H]2CCN(Cc3nccs3)C2)n1,"cGMP-dependent protein kinase 1 (PRKG1, Homo sapiens, UniProt Q13976)","kinase activity, inhibitor, IMAP",,"10 µM, together with: FAM-IP3R peptide",inhibition,13 ± 4%
CCNC(=O)C(=O)[C@H](Cc1ccccc1)NC(=O)[C@H]1CCC(=O)N1Cc1ccc(F)cc1,CTSB,"enzyme activity, inhibitor",,1 µM,inhibition,0%
CCCCCCCCCCCCNC(=S)NCCCC[C@H](NC(=O)CCCCCCCC)C(=O)N[C@H](C)C(=O)N[C@@H](CCCNC(=N)N)C(N)=O,"NAD-dependent protein deacetylase sirtuin-2 (SIRT2, Homo sapiens, UniProt Q8IXJ6)","demyristoylation, inhibitor",,"100 µM, together with: myristoylated peptide 50 µM",inhibition,47%
FC(F)(F)c1ccc2c(c1)CC/C2=N\OCCCN1CCCCC1,Sigmar1,radioligand binding,rat,10 µM,inhibition,96%
Cc1n[nH]c(C)c1CCCOc1ccccc1F,"Prostaglandin G/H synthase 1 (PTGS1, Homo sapiens, UniProt P23219)",enzyme activity,,10 µM,inhibition,< 1%
C/C(=N\OCCN1CCN(C)CC1)c1ccc(C(F)(F)F)cc1,Sigmar1,radioligand binding,rat,10 µM,inhibition,109%
CS(=O)(=O)Oc1cccc(/C=C/c2c[nH]c3ccc(F)cc23)c1,APP Aβ1-40,"Aβ40 aggregation, thioflavin T fluorescence",,25 µM,inhibition,73%
COC(=O)/C=C/CNC(=O)c1c(C)n(C2CCCC2)c2ccc(OC)cc12,"E3 ubiquitin-protein ligase NEDD4 (Homo sapiens, UniProt P46934)","ubiquitination, inhibitor, Ub-TR-FRET",,"33 µM, HECT domain",inhibition,64.8 ± 22.4%
CC(=O)Nc1ccc(/C=C/c2c[nH]c3ccc(C#N)cc23)cc1,APP Aβ1-40,"Aβ40 aggregation, thioflavin T fluorescence",,25 µM,inhibition,27%
CCCSc1nc(N[C@@H]2C[C@H]2c2ccc(F)c(F)c2)c2nnn([C@@H]3C[C@H](O)[C@@H](O)[C@H]3O)c2n1,"Sodium-dependent dopamine transporter (SLC6A3, Homo sapiens, UniProt Q01959)",binding,,"concentration not given, human free Cmax",inhibition,no inhibition
O=C(Nc1cccc(F)c1)c1cc(S(=O)(=O)N2CCOCC2)c(Cl)cc1Cl,"Autotaxin (ENPP2, Homo sapiens, UniProt Q13822)",enzyme activity,,"10 µM, 2 h, 37 °C, together with: 100 µM LPC 18:1",inhibition,51.8 ± 2.4%
Fc1ccc2[nH]cc(/C=C/c3cccnc3)c2c1,APP Aβ1-40,"Aβ40 aggregation, thioflavin T fluorescence",,25 µM,inhibition,31%
CC(C)(C1CS1)S(=O)(=O)c1ccc(Oc2ccccc2)cc1 (centres unmarked),"72 kDa type IV collagenase (MMP2, Homo sapiens, UniProt P08253)","enzyme activity, inhibitor, progress curves",,concentration not given,inhibition,no inhibition
N#Cc1ccc2[nH]cc(/C=C/c3c[nH]c4ccccc34)c2c1,APP Aβ1-40,"Aβ40 aggregation, thioflavin T fluorescence",,25 µM,inhibition,46%
C/C(=N\OCCN1CCN(C2COC2)CC1)c1ccc(C(F)(F)F)cc1,Sigmar1,radioligand binding,rat,10 µM,inhibition,93.3%

# For quick reference, copied from above:
SMILES,target or system,test,system,conditions,measurement,result
O=C(OC(C(F)(F)F)C(F)(F)F)N1Cc2cccc(Br)c2C1,"Monoglyceride lipase (MGLL, Homo sapiens, UniProt Q99685)","inhibitor, fluorescence",,"1 µM, together with: AHMMCE substrate",inhibition,inactive
CNc1nc(C#Cc2ccc(Cl)s2)nc2c1ncn2[C@H]1[C@H](O)[C@H](O)[C@]2(C(=O)OC(C)C)C[C@H]12,SLC6A2,"binding, radioligand binding",HEK293,"10 µM, negative means enhanced binding, together with: [3H]nisoxetine",inhibition,37 ± 2%
CN(C)C(=O)Cn1cc(-c2ccc(-c3cncc4ccncc34)cc2)cn1,"Cyclin-dependent kinase 7 (CDK7, Homo sapiens, UniProt P50613)","enzyme activity, SelectScreen",,concentration not given,inhibition,no inhibition
CS(=O)(=O)Oc1cccc(/C=C/c2c[nH]c3ccc(F)cc23)c1,APP Aβ1-40,"Aβ40 aggregation, thioflavin T fluorescence",,25 µM,inhibition,73%
CC(=O)Nc1ccc(/C=C/c2c[nH]c3ccc(C#N)cc23)cc1,APP Aβ1-40,"Aβ40 aggregation, thioflavin T fluorescence",,25 µM,inhibition,27%
